Assay results gathered from unrelated publications.
Numbers after ± are the reported error.

With `CCN(Cc1ccccc1)C(=O)CCc1nc(CN2CCN(C(=O)Cc3ccc(OC)c(OC)c3)CC2)no1` the concentration was less than 1.8 ng/g (rat, kidney; intravenous, 1 mg/kg, 1 h, single dose).
With `CC[C@H](C)[C@@H]1NC(=O)[C@H](CCCCN)NC(=O)[C@H](CCCNC(=N)N)NC(=O)[C@H](Cc2ccc(O)cc2)NC(=O)[C@H](CC(C)C)NC(=O)[C@@H]2CCCN2C(=O)[C@H](C)NC(=O)CNC(=O)CNC(=O)[C@H](CO)NC(=O)CNC(=O)CNC(=O)[C@H](CO)NC(=O)[C@H](CCC(=O)O)NC(=O)[C@H](CC(C)C)NC(=O)[C@H](CC(C)C)NC(=O)[C@H](CCCCN)NC(=O)[C@H](CCCCN)NC(=O)[C@H]([C@@H](C)CC)NC(=O)[C@H]([C@@H](C)CC)NC(=O)[C@H](CCCCN)NC(=O)[C@H](CCCNC(=N)N)NC(=O)[C@H](Cc2ccc(O)cc2)NC(=O)[C@H](CC(C)C)NC(=O)[C@@H]2CCCN2C(=O)CNC(=O)CNC(=O)[C@@H](NC(=O)CN)CSSC[C@@H](C(N)=O)NC(=O)[C@H](CC(C)C)NC(=O)[C@H](CCCCN)NC(=O)[C@H](CCCCN)NC(=O)[C@H]([C@@H](C)CC)NC1=O` the HC10 was 22.8 ± 1.9 µM (hemolysis; uninfected human erythrocytes; 1 h).
`N=C(N)NCc1ccc(C(=O)NCCCC[C@H](NC(=O)CCCCCCC(=O)NCCCC[C@H](NC(=O)N[C@@H](CCC(=O)O)C(=O)O)C(=O)O)C(=O)O)cc1[131I]` gave a tissue uptake of 0.22 ± 0.07 %ID/g (SCID mouse, PC-3 xenografts, bone; 2 h).
`COc1ccc(C)cc1NC(=O)OC1CC2CCCC(C1)N2Cc1ccc(CC[18F])cc1` (stereo not shown) gave a tumour uptake of 3.47 ± 0.51 %ID/g (BALB/c mice EMT6 tumour, tumour; 1 h).
`O=c1oc2cc(O)ccc2c2cc(O)c(O)cc12` has a pKa1 of 6.58 (potentiometric titration; water, extrapolated from methanol/water; 25 °C).
The half-life of `CCOC(=O)[C@@H]1Cc2c(cc([N+](=O)[O-])cc2[N+](=O)[O-])[C@H](O)[C@]12C(=O)Nc1ccc(Br)cc12` is reported as 46.5 min (metabolic stability; human, liver microsomes).
For `C#Cc1c(F)ccc2cc(O)cc(-c3ncc4c(N5CC6CCC(C5)N6C(=O)OCCCCC)nc(OC[C@@]56CCCN5C[C@H](F)C6)nc4c3F)c12`, the compound remaining was 115% (chemical stability; simulated intestinal fluid; 1 µM, 30 min).
With `Cc1ccc(/C=C/C(=O)O)cc1-c1cc2c(cc1C)C(C)(C)CCC2(C)C` the blood triglycerides was 269 ± 102 mg/dL (Sprague-Dawley rat, male; oral, 100 mg/kg, 12 h, sesame oil vehicle).
`CC(C)[C@H](NC(=O)CNC(=O)[C@H](CCC(N)=O)NC(=O)[C@H](C)N)C(=O)O` — result for “subjects with any AE”: 37.5% (healthy male volunteers; intravenous, 90 mg/kg/h, 2 h, together with: LPS 2 ng/kg).
`C/C=C/C=C/C/C=C/CCCCCCCc1cccc(O)c1O` has a tissue concentration of 8460 ± 780 ng/g (female Kunming mice, tumour-bearing, spleen; intravenous, 10 mg/kg, 2 h).
With `CN(C(=O)Cc1ccc(Cl)c(Cl)c1)[C@@H](CN1CCCC1)c1ccccc1` the intrinsic clearance was 7.4 mL/min/g (mouse liver microsomes).
`O=C(O)CC[C@H](NC(=O)O[C@@H](CCCCNC(=O)c1ccc([18F])cc1)C(=O)O)C(=O)O` gave a tissue uptake of 0.07 ± 0.04 %ID/g (mouse, PC-3 PIP/flu xenografts, heart; 180 min).
`Cc1cc(-c2ccc3ccccc3c2)nnc1NCCN1CCN(C)CC1` has an AUC(0-last) of 1400 ng·h/mL (rat; oral, dose not given).
`CC[C@H](C)[C@H](NC(=O)[C@H](CC(=O)O)NC(=O)[C@H](CO)NC(=O)[C@H](CCC(N)=O)NC(=O)[C@H](C)NC(=O)[C@H](CC(=O)O)NC(=O)[C@H](CCC(=O)O)NC(=O)[C@H](Cc1c[nH]cn1)NC(=O)[C@H](Cc1ccc(O)cc1)NC(=O)[C@H](C)NC(=O)[C@H](CC(=O)O)NC(=O)[C@H](CCC(=O)O)NC(=O)[C@H](Cc1c[nH]cn1)NC(=O)[C@H](Cc1ccc(O)cc1)NC(=O)[C@H](C)NC(=O)[C@H](CC(=O)O)NC(=O)[C@H](CCC(=O)O)NC(=O)[C@H](Cc1c[nH]cn1)NC(=O)[C@H](Cc1ccc(O)cc1)NC(=O)[C@H](C)NC(=O)[C@H](CC(=O)O)NC(=O)[C@H](CCC(=O)O)NC(=O)[C@H](Cc1c[nH]cn1)NC(=O)[C@H](Cc1ccc(O)cc1)NC(=O)[C@H](C)NC(=O)[C@H](CC(=O)O)NC(=O)[C@H](CCC(=O)O)NC(=O)[C@H](Cc1c[nH]cn1)NC(=O)[C@@H](N)Cc1ccc(O)cc1)C(=O)N[C@H](C(=O)N[C@@H](C)C(=O)N[C@@H](Cc1c[nH]cn1)C(=O)N[C@@H](CC(C)C)C(=O)N[C@@H](CC(C)C)C(=O)O)C(C)C` gave an MPV of 7.4 ± 0.7 fL (mouse, SN model; dose not given).
`CCCCCCCCCCCCC(=O)O.O=C1CCCC2C3CCCN4CCCC(CN12)C34` (stereo not shown) — result for “standard entropy of aggregation”: 111 J/(mol·K) (electrical conductivity; water; 313.15 K).
`CSCC[C@H](NC(=O)CNC(=O)[C@H](CC(=O)O)NC(=O)[C@@H](NC(=O)[C@@H](NC(=O)[C@@H](NC(=O)CNC(=O)[C@H](CCC(N)=O)NC(=O)[C@H](CCSC)NC(=O)[C@H](CC(=O)O)NC(=O)[C@H](C)NC(=O)[C@H](C)NC(=O)[C@@H](NC(=O)[C@H](CO)NC(=O)[C@@H](N)CC(C)C)[C@@H](C)O)C(C)C)C(C)C)[C@@H](C)O)C(=O)N[C@@H](C)C(=O)N[C@@H](CO)C(=O)NCC(=O)N[C@@H](CC(C)C)C(=O)N[C@@H](CC(=O)O)C(=O)N[C@@H](CCCCN)C(=O)N[C@@H](CC(=O)O)C(=O)N[C@@H](Cc1ccc(O)cc1)C(=O)N[C@@H](CC(C)C)C(=O)N[C@@H](CCCCN)C(=O)N1CCC[C@H]1C(=O)N[C@@H](CC(=O)O)C(=O)N[C@@H](CC(=O)O)C(=O)O` gave a Tmax of 10.2 min (human, serum; intravenous, 0.83 mg/kg, patients, infusion).
With `CC(=O)[O-].CN1CCCN2CCN(C)CCCN(CC1)CC2.F[P-](F)(F)(F)(F)F.[Co+2]` the E1/2 was 0.536 V (cyclic voltammetry, item: second Co2+/Co3+ couple; acetonitrile; reference: SHE).
Under “body weight gain”, `O=c1c2cc(Cl)ccc2sc2c(NCc3ccccc3)nc3ccccc3c12` is recorded as 5.55 ± 0.45% (BALB/c nude mice; i.p., 60 mg/kg).
For `CN(C)C(CNC(=O)Nc1cc(C(F)(F)F)ccc1N1CCOCC1)c1ccncc1` (stereo not shown), “blood urea nitrogen” read 20 mg/dL (mouse, serum; intraperitoneal, 180 mg/kg single dose).
`CC[C@H](C)C(=O)N1CCC(NC(=O)Nc2ccc(OC(F)(F)F)c(F)c2)CC1` gave a Tmax difference of 4.8 min (healthy volunteers; oral, 8 mg; reference: fed over fasted).
For `COc1cc2c3c(c4cc(OC)c(OC)cc4c2cc1OC)CN1CCCCC1C3` (stereo not shown), the AUC(0-inf) was 265 ng·h/mL (Sprague-Dawley rat, male; oral, dose not given).
`C[C@H](CCC(=O)N[C@@H](CCCCNC(=O)C(F)(F)F)C(=O)O)[C@H]1CC[C@H]2[C@@H]3[C@H](O)C[C@@H]4C[C@H](O)CC[C@]4(C)[C@H]3C[C@H](O)[C@]12C` gave an AUC(0-24 h) of 232 µM·h (C57BL/6J mice, liver; oral, 50 mg/kg).
The effective permeability of `COC1CC(OC2CCC3(C)C4CCC5(C)C(C6=CC(=O)OC6)CCC5(O)C4CCC3(O)C2)OC(C)C1OC1OC(CO)C(O)C(O)C1O` (stereo not shown) is reported as 19 ± 86.3 ×10⁻⁶ cm/s (in situ single-pass perfusion; rat, proximal jejunum; dose not given, 90 min, pH 6.8).
Under “blood urea nitrogen”, `CSCC[C@@H]1NC(=O)[C@@H]2CSSC[C@H](NC(=O)[C@H](CO)NC(=O)[C@H](C)N)C(=O)N[C@@H](CCCNC(=N)N)C(=O)N[C@@H]([C@@H](C)O)C(=O)N3CCC[C@H]3C(=O)N[C@@H](CCCCN)C(=O)N[C@@H](CC(=O)O)C(=O)N[C@H]3CSSC[C@H](NC(=O)[C@H](CCCCN)NC(=O)[C@H](CCCNC(=N)N)NC(=O)[C@H](CC(N)=O)NC1=O)C(=O)N[C@@H](CCCCN)C(=O)N[C@H]1CSSC[C@H](NC(=O)[C@@H]4CCCN4C(=O)[C@H](CC(=O)O)NC(=O)[C@H](C)NC3=O)C(=O)N[C@@H](C)C(=O)N[C@@H](CCCCN)C(=O)N[C@@H](CCC(=O)O)C(=O)N[C@@H]([C@@H](C)O)C(=O)NCC(=O)N[C@@H](CSSC[C@@H](C(N)=O)NC(=O)[C@H](CCCNC(=N)N)NC(=O)[C@H](CC(N)=O)NC1=O)C(=O)N1CCC[C@H]1C(=O)N[C@@H](Cc1ccc(O)cc1)C(=O)NCC(=O)N[C@@H](CCCCN)C(=O)N2` is recorded as 11.1 mg/dL (DA rat, pristane-induced arthritis, serum; subcutaneous, 0.1 mg/kg single dose at onset, 21 days).
`C[C@H](Nc1c(-c2c(F)cc(OCCCN(C)C)cc2F)c(Cl)nc2ncnn12)C(F)(F)F` — result for “brain/plasma unbound AUC ratio”: 0.09 ± 0.01 (CD1 mouse; intraperitoneal, 5 mg/kg, 16 h).
For `CC1=CC(C)(C)N=C2C=CC(=O)C=C12`, “PCE/NCE ratio reduction” read 54% (female rats, bone marrow; oral, 350 mg/kg, 48 h, three of five animals; reference: vehicle).
With `C[C@@H]1CC[C@H]2[C@@H](C)CO[C@@H]3O[C@@]4(C)CC[C@@H]1[C@]32OO4` the half-life was 27 ± 3 min (rat Sprague-Dawley male, plasma; intravenous, 5 mg/kg).
For `CCNc1cc2[o+]c3cc(NCC)c(C)cc3c(-c3ccccc3C(=O)OCCOCC[18F])c2cc1C`, “tissue uptake ratio” read 1.3 (rat; 15 min; reference: heart over liver).
`CC(C)[C@H](NC(=O)CNC(=O)[C@H](CCC(N)=O)NC(=O)[C@H](C)N)C(=O)O` — result for “drug-related adverse events”: 0% (human; intravenous infusion, 15 mg/kg/h, 2 h, relatedness Possibly; reference: subjects).
With `[2H]C([2H])([2H])C([2H])([2H])C([2H])([2H])OC(C(=O)OC1CCNCC1)(c1ccccc1)c1ccccc1` the Tmax was 240 min (male human, plasma; oral, 12 mg, multiple doses).
`COC(=O)C[C@](O)(CCCC(C)(C)OC(C)=O)C(=O)O[C@@H]1C(OC)=C[C@]23CCCN2CCc2cc4c(cc2[C@H]13)OCO4` gave a tissue concentration of 39.6 ng/mL (CD1 mouse, stomach; oral, 1 mg/kg, 8 h).

Repeated from above:
`C/C=C/C=C/C/C=C/CCCCCCCc1cccc(O)c1O` has a tissue concentration of 8460 ± 780 ng/g (female Kunming mice, tumour-bearing, spleen; intravenous, 10 mg/kg, 2 h).
With `CC(=O)[O-].CN1CCCN2CCN(C)CCCN(CC1)CC2.F[P-](F)(F)(F)(F)F.[Co+2]` the E1/2 was 0.536 V (cyclic voltammetry, item: second Co2+/Co3+ couple; acetonitrile; reference: SHE).
Under “blood urea nitrogen”, `CSCC[C@@H]1NC(=O)[C@@H]2CSSC[C@H](NC(=O)[C@H](CO)NC(=O)[C@H](C)N)C(=O)N[C@@H](CCCNC(=N)N)C(=O)N[C@@H]([C@@H](C)O)C(=O)N3CCC[C@H]3C(=O)N[C@@H](CCCCN)C(=O)N[C@@H](CC(=O)O)C(=O)N[C@H]3CSSC[C@H](NC(=O)[C@H](CCCCN)NC(=O)[C@H](CCCNC(=N)N)NC(=O)[C@H](CC(N)=O)NC1=O)C(=O)N[C@@H](CCCCN)C(=O)N[C@H]1CSSC[C@H](NC(=O)[C@@H]4CCCN4C(=O)[C@H](CC(=O)O)NC(=O)[C@H](C)NC3=O)C(=O)N[C@@H](C)C(=O)N[C@@H](CCCCN)C(=O)N[C@@H](CCC(=O)O)C(=O)N[C@@H]([C@@H](C)O)C(=O)NCC(=O)N[C@@H](CSSC[C@@H](C(N)=O)NC(=O)[C@H](CCCNC(=N)N)NC(=O)[C@H](CC(N)=O)NC1=O)C(=O)N1CCC[C@H]1C(=O)N[C@@H](Cc1ccc(O)cc1)C(=O)NCC(=O)N[C@@H](CCCCN)C(=O)N2` is recorded as 11.1 mg/dL (DA rat, pristane-induced arthritis, serum; subcutaneous, 0.1 mg/kg single dose at onset, 21 days).
For `CN(C)C(CNC(=O)Nc1cc(C(F)(F)F)ccc1N1CCOCC1)c1ccncc1` (stereo not shown), “blood urea nitrogen” read 20 mg/dL (mouse, serum; intraperitoneal, 180 mg/kg single dose).
`CCCCCCCCCCCCC(=O)O.O=C1CCCC2C3CCCN4CCCC(CN12)C34` (stereo not shown) — result for “standard entropy of aggregation”: 111 J/(mol·K) (electrical conductivity; water; 313.15 K).
